Measured values of several laboratories.
Each numbered part is a random draw from the data of one study; scales do not carry over between parts. Several values in a cell are separate wells, animals, samples, runs or records.

Sample 1
Target: Glycogen synthase kinase-3 alpha (GSK3A, Homo sapiens, UniProt P49840)
Sequence of UniProt P49840 (whole entry, looked up): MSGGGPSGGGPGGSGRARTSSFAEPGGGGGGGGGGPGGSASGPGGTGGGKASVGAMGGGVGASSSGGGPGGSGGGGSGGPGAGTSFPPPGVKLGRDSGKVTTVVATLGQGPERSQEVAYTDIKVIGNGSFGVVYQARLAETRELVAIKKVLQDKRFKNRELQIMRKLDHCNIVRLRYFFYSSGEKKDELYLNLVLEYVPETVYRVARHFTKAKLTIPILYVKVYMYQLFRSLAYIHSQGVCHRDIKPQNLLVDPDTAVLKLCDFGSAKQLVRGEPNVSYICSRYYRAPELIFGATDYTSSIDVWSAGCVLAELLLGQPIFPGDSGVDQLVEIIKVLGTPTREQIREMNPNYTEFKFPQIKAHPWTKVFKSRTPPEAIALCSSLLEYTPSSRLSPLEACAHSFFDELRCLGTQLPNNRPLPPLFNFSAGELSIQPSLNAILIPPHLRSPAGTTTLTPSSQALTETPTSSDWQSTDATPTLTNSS
Observed: enzyme activity
Mode: inhibitor
Concentration: 0.5 µM
Reference: control
Quantity: remaining activity
COc1cc2c(Nc3ccc(Br)cc3F)ncnc2cc1OCC1CCN(C)CC1: 103%
C[C@@H](N)[C@H]1CC[C@H](C(=O)Nc2ccncc2)CC1: 103%
CNc1cc2c(Nc3cccc(Br)c3)ncnc2cn1: 95.9%
CC(C)N(CCC(=O)c1ccc2ccccc2c1)Cc1ccccc1: 98.8%
NC(=O)c1ccc(-c2nc(-c3ccc4c(c3)OCCO4)c(-c3ccccn3)[nH]2)cc1: 103%
N#C/C(=C(/N)SC1C=CC=CC1)c1cccc(C(O)c2ccncc2)c1 (stereo not drawn): 103%
CC(C)(C)c1nc2c3cc[nH]c(=O)c3c3cc(F)ccc3c2[nH]1: 121%
O=C1NC(=O)/C(=C/c2ccc3c(c2)OC(F)(F)O3)S1: 88.1%
CC(C)n1cnc2c(Nc3cccc(Cl)c3)nc(NCCO)nc21: 103%
FC(F)(F)c1ccc(/C=C/c2nc(COc3ccc(CCCCn4ccnn4)cc3)co2)cc1: 102%

Sample 2
Cell line: mouse MPNST tumor cells
Technique: high-content immunofluorescence imaging
Item: nuclear SOX9
Concentration: 10 µM
Time: 12 h
Setting: mean of 2 replicates
Reference: DMSO control
Direction: higher = more nuclear SOX9
Quantity: nuclear SOX9 intensity
CC(=O)NS(=O)(=O)c1ccc(NC(=O)c2ccccc2C(=O)O)cc1: 105 % of DMSO
COc1ccncc1C(=O)NC(=O)Nc1ccc(-c2ccccc2)c(C(F)(F)F)c1: 112 % of DMSO
Nc1nc2c(ccc3ccccc32)s1: 93.8 % of DMSO
CCCc1nc(C(C)(C)O)c(C(=O)O)n1Cc1ccc(-c2ccccc2-c2nnn[nH]2)cc1: 117 % of DMSO and 102 % of DMSO
Cc1nn(C)c2nc(NNC(=O)Nc3cc(Cl)nc(Cl)c3)cc(C(C)C)c12: 107 % of DMSO
NCCNS(=O)(=O)c1ccc(Cl)c2ccncc12: 111 % of DMSO
CCCCCCNC(=O)Nc1ccc(S(=O)(=O)Nc2ccc(CCNC[C@H](O)COc3ccc(O)cc3)cc2)cc1: 139 % of DMSO
N#C[C@@H]1CC[C@H](C#N)N1C(=O)CNC1(CO)CCCC1: 115 % of DMSO
CO/N=C(\C(=O)N[C@@H]1C(=O)N2C(C(=O)O)=C(COC(C)=O)CS[C@H]12)c1csc(N)n1: 103 % of DMSO
CC(=O)CC(c1ccccc1)c1c(O)c2ccccc2oc1=O (stereo not drawn): 106 % of DMSO

Sample 3
Cell line: Huh-7
Concentration: 10 µM
Time: 24 h
Quantity: viability
CCC[C@@H]1C[C@@H](C(=O)N[C@@H]([C@H]2O[C@H](SC)[C@H](O)[C@@H](O)[C@H]2O)[C@@H](C)O)N(C)C1: 101%
CCCCc1nc(Cl)c(CO)n1Cc1ccc(-c2ccccc2-c2nn[nH]n2)cc1: 97.8%
CCN(CC)CCNC(=O)c1ccc(N)cc1: 101%
COCCCOc1cc(C[C@@H](C[C@H](N)[C@@H](O)C[C@H](C(=O)NCC(C)(C)C(N)=O)C(C)C)C(C)C)ccc1OC: 101%
Cc1ccc(Cl)c(Nc2ccccc2C(=O)O)c1Cl: 96.7%
CCCc1nc(C)c2c(=O)[nH]c(-c3cc(S(=O)(=O)N4CCN(CC)CC4)ccc3OCC)nn12: 101%
CC1(C)S[C@@H]2[C@H](NC(=O)[C@H](N)c3ccccc3)C(=O)N2[C@H]1C(=O)O: 97.1%
CC(C)[N+](C)(CCOC(=O)C1c2ccccc2Oc2ccccc21)C(C)C: 106%

Sample 4
Cell line: normal-adjacent organoid sample E
Technique: CellTiter-Glo
Concentration: 1 µM
Setting: replicate mean
Reference: DMSO
Quantity: viability
O=c1nc(-c2ccccn2)sc2ccccc12: 66.9%
Cc1c(NC(=O)c2ccc(C(C)(C)C)cc2)cccc1-c1cn(C)c(=O)c(Nc2ccc(C(=O)N3CCOCC3)cc2)n1: 87.2%
CC(=O)Nc1c(C(C)=O)c(=O)n(C)c2nc(-c3ccc(Cl)cc3Cl)c(-c3ccc(Cl)cc3)cc12: 104%
CCc1ccccc1C(=O)Nc1n[nH]c2c(C)c(F)c(C3C(C#N)=C(C)N(C)C(C)=C3C#N)cc12: 87.6%
Cc1cnc(-c2cc(Cl)ccc2F)cc1-n1c(=O)n(CC(N)=O)c2cnccc21: 120%
Cc1ccc2nc(CNCCCOc3ccccc3)cc(O)c2c1: 117%
CC(=O)N1CCC(c2ccc(C(=O)NC(=N)N)cc2C(F)(F)F)CC1: 96.3%
CN([C@@H]1CCc2c(CC(=O)O)c3ccccc3n2C1)S(=O)(=O)c1ccc(F)cc1: 123%
CC(=O)c1c(NS(C)(=O)=O)c2cc(-c3ccc(Cl)cc3)c(-c3ccc(Cl)cc3Cl)nc2n(C)c1=O: 89.5%
CN(C)c1ncnc(-c2ccc3nc(Nc4cc(CN5CCN(C(=O)CC(F)(F)F)CC5)ccn4)[nH]c3c2)c1Cl: 90%
O=C(N1CCS(=O)(=O)CC1)N1C[C@H](c2ccc(OC(F)(F)F)cc2)C[C@H](c2nc(C3CC3)no2)C1: 89.6%
Cc1nc(N2CC[C@@H](O)C2)ncc1-c1cc(C(F)(F)F)cc2[nH]ncc12: 101%
O=C1NC(c2ccccn2)Sc2ccccc21 (stereo not drawn): 111%
CCCCN(CCCC)C(=O)CN1C[C@@H](c2cc(OC)c3c(c2)OCO3)[C@H](C(=O)O)[C@H]1CC(C)(C)CCC: 116%

For quick reference, copied from above (sample 4):
CCc1ccccc1C(=O)Nc1n[nH]c2c(C)c(F)c(C3C(C#N)=C(C)N(C)C(C)=C3C#N)cc12: 87.6%
Cc1ccc2nc(CNCCCOc3ccccc3)cc(O)c2c1: 117%
CC(=O)Nc1c(C(C)=O)c(=O)n(C)c2nc(-c3ccc(Cl)cc3Cl)c(-c3ccc(Cl)cc3)cc12: 104%
Cc1c(NC(=O)c2ccc(C(C)(C)C)cc2)cccc1-c1cn(C)c(=O)c(Nc2ccc(C(=O)N3CCOCC3)cc2)n1: 87.2%
Cc1nc(N2CC[C@@H](O)C2)ncc1-c1cc(C(F)(F)F)cc2[nH]ncc12: 101%
